Measured values gathered from unrelated publications.
A part holds a random share of what one study measured.

Series 1 — technique: RNA Bind-n-Seq; molecule type: RNA; matrix: in vitro; concentration: 365 nM; baseline: no-protein control; direction: higher = stronger binding
Target: RNA binding protein fox-1 homolog 2, RRM domain, GST-SBP tag (RBFOX2, Homo sapiens, UniProt O43251-10, residues 100-194)
Notes: natural RNA segment, single round, ends assumed
Target sequence (chain): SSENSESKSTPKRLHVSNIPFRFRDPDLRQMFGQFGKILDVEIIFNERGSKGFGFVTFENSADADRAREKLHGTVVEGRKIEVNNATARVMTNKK
| Strand | RBNS enrichment (R) |
| --- | --- |
| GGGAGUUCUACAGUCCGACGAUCGAAGAUUUAUUGCAUUCUCCAUUUGUUAUCUGGGGACUUGUUAAAUAGAAACUGAAACUACUCUUGAAAAACAGGCAGCUCCUAAGAGCCACAGGUCUUGAUGUGACUUUUGGAAUUCUCGGGUGCCAA | 0.459 |
| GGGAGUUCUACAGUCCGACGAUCAGAGUAGCAAUUGCUAUUUCUAAAUUGUGAACUUUAAGUCAAUCUAGAUUUAUUUUGAGAAGUAAUUGUUCACUCUUUACUUUUGAGGCAGCCAUUAGGUUGAAAGUAUAUGGAAUUCUCGGGUGCCAA | 0.299 |
| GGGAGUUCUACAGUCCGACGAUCAGGGCACGGAAAAUCUUAUGCUGCUCCGUCAUAAACCUACACCAAUGCCCAGCAAUCACCCUCCUCACUUCCUUGUCUAGAUGUAGAGGUCAGGCUGCUGAACCAGCCAAUGGAAUUCUCGGGUGCCAA | 0.334 |
| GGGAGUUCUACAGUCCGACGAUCUAAACCAUGGCUGGGCAUAACUAUUCCGAACUGUCCCCCCAUCAGGAUACAAGAUGCUGAGAGGGCUGCAGGGCCAUUCCAUCAAGCCCCAGGGUGAAAGGGCUGGCAUGUGGAAUUCUCGGGUGCCAA | 1.02 |
| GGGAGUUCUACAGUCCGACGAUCUACCAUUAACUAUGAGAUUAACAAAAACUUUUACCUUUGUGCAGAAGGUUAAAAAAAAAAAAACAUGGUUAAGGAAAAGGAGACAUGUUACCUCUUCAUACACUCCUAUAUGGAAUUCUCGGGUGCCAA | 0.463 |
| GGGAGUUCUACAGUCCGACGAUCACCCAAGUUUAAUUUGGUAGCUGAAAUAUCUUUUUGCCUCAGACAGCUCUUGAAUUGCUCAUACAGAACAAUUCUGCUGGUGCUGGAGUCUGAAGAAUAUUUUCAUUUGCUGGAAUUCUCGGGUGCCAA | 0.267 |
| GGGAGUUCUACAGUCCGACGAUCGGUUUCCAAUCCAGUGUGGACAGCAAAUGAAUGCUAUGCAGGCAUGCAGAUGAGAUCUGUACUAUAGUCUACAAUUUGUAUCCUGUCUCUCCCACCACCCCCGGCAGUGUUGGAAUUCUCGGGUGCCAA | 0.481 |
| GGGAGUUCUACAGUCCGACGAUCGGGCAGGGGAACUCCUAAAAUAAUACAUGACCACUUCCUCAUUUCUGGGGAAGGAAAGGAGACUAGAGCAGCUGGUGUGCUCACCCCUCCCUAGUCACCUCCAUUAACCAUGGAAUUCUCGGGUGCCAA | 0.186 |
| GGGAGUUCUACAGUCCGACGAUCGGAGAACUUGGUGUCUCACCCUGGGUACCCAUUCCUGGUGUAUGGAAGCACCUCCUUCACGGUCAGGGGGCCUGUGCUUGGCUUUCUGCCAUCAGACAUUAAGCUGUAGCUGGAAUUCUCGGGUGCCAA | 0.233 |

Series 2 — technique: RNA Bind-n-Seq; molecule type: RNA; matrix: in vitro; concentration: not given; baseline: input RNA pool; direction: higher = stronger binding
Target: RING finger protein unkempt homolog, zinc fingers 1-6, GST-SBP tag (UNK, Homo sapiens, UniProt Q9C0B0, residues 30-357)
Notes: RNA with constant flanks, human and mouse sites, ends assumed
Target sequence (chain): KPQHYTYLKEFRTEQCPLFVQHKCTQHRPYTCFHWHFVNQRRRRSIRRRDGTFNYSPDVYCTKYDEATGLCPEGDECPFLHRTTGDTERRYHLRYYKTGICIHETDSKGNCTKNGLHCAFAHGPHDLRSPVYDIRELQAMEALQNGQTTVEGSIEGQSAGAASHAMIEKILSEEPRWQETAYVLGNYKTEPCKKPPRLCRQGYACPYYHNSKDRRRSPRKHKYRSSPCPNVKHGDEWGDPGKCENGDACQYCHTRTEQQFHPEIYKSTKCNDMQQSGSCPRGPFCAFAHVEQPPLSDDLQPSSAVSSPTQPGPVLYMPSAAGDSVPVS
| Strand | bound/input enrichment |
| --- | --- |
| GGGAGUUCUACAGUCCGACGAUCGCCGCACUCGGACCCGGGAAGCCGUGCUCUCUCCCCGAUUCUCCGCGGAGGACCCUAGGAAAAUUGUGCAAUGAAUGGUGACACUCGGGCCGCAGUGGUGACCUCACCACCUCCAACCACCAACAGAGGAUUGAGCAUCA | 0.155 ratio |
| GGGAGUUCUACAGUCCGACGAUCUUUUUUUUUUUUUGGAUACAUCUUAACAUAUAAAAAUUAAGUUUUUGCCAUUCAACAUAGUAGUAUCAUAUGGCCUGGAUAUAUUUGAAUGUGUAUGAAGUAAAGUUGCUUGAGAACAGGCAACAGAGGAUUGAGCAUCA | 2.24 ratio |
| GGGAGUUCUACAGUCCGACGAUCAAACAAGAGACCCUCCCUCCCGGCCAUGUUCCUUGCGGCAGUUGGUGAACUGAGUCUGUAAAUAGGGCCCUACCGGUUUUUGUUUUUGUUUUGUUUUGUUUUUCUGUAGGCCUGCAUUGUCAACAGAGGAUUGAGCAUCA | 0.81 ratio |
| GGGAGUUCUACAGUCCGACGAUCCCUGUCAUUCACAACGGAAGCCAAGGAACAGGAACAAAUGGUUCGGAAAUCAGUGAUAGUGAUUAUCAGGCAGAAUACCCUGAUGAGUAUCAUGGCGAGUACCAGGAUGACUACCCCAGACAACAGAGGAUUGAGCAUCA | 0.127 ratio |
| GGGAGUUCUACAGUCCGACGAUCUUAAUGUUUUCAAACUGCUUUGAAUACAACCCUCGGAACACAAGUGAAGCAAAAGCUGGAACUCGGCUUCAAGCAUUUUUUCAUAUUCAAGCUCAAAAGCUUGGACUCCACGUCUCACCCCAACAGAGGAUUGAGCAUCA | 0.119 ratio |
| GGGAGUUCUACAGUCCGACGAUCGAAAAUAUGAUGAACUCUAUCUUUAAGGGUAUAUUUGUUCAUCGAUACCGUGAUGCAAUUGCUGAAAUUCGAGCCAUCUGUAUUGAAGAAAUUGGAGUGUGGAUGAAAAUGUAUAGCGAUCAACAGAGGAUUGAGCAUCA | 0.27 ratio |
| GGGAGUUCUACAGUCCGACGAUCCGAAUGCCACUUUUAAGCCUGCAUCUAGAUGUAAAAGAAAAUGGUGAAGUAAAACCUUAUUCUAUUGAAAUGAGUAGAGAGGAGCUGCAGAAUCUAAUACAGUCCUUGGAAGCAGCGAAUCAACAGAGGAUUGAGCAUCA | 0.281 ratio |
| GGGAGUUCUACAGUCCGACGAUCGACAUUGCCAUCAACGAACUCAUGAAAAGAUACUGUCCUAAUUCCGUAUUGGUCAUCAUUGAUGUGAAGCCGAAGGACCUAGGGCUGCCUACAGAAGCGUACAUUUCAGUGGAAGAAGUCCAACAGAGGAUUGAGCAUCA | 0.0834 ratio |
| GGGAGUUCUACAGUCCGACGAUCCAAAAGUGAGGUUUUGUAGUGGGACCAGAAAUUACUAAGCCCACACCCCCUCCCUAACCCCAAUUCUGCUGCAUGGGAAGUUCUCCACCUGCUGCCAAGGCAGAGCUCCUGGUCUCCCAUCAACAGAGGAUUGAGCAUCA | 0.225 ratio |
| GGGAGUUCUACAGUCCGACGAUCGAGGAUUAUGACAGAUUACGACCGCUGAGUUAUCCACAAACAGAUGUAUUUCUAGUCUGUUUUUCAGUGGUCUCUCCAUCUUCAUUUGAAAACGUGAAAGAAAAGUGGGUGCCUGAGAUACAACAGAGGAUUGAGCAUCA | 0.282 ratio |
| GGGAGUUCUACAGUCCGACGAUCUUAUCAAGGAAACAGAAAGAAGAAUUAUGGCAAAGACUGAAGGACUUACUAACAGAAACAUUGUUGGAAAGCCCUGUGGAUAGGUGGCAGACAGUGGAAGUCGAGGGUGCAGACGAUAUGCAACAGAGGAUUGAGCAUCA | 0.435 ratio |

Series 3 — technique: protein-binding microarray; molecule type: double-stranded DNA, one strand shown; matrix: in vitro; concentration: 0.8 µM; notes: whole 60-bp probe, no competitor; direction: higher = stronger binding
Target: Centromere-binding protein 1, full length, N-terminal tag (CBF1, Saccharomyces cerevisiae, UniProt P17106, residues 1-351)
Sequence of UniProt P17106 (whole entry, looked up): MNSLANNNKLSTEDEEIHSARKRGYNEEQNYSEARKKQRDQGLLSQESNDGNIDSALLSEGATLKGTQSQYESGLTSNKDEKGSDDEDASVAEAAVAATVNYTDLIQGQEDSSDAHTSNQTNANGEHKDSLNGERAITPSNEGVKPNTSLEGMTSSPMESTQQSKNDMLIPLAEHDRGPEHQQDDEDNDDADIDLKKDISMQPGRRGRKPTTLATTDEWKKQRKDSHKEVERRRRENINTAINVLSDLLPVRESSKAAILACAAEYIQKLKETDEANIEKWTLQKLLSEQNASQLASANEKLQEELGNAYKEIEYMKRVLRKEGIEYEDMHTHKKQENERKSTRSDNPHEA
| Strand | fluorescence intensity |
| --- | --- |
| CTAGTAGTGTATTATCACATGGTGTGTAAGAACTTCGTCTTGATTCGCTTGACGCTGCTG | 1690 a.u. |
| GAAAGAAGTAATATTATCATGATGAATGAATGATAGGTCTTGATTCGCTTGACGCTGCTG | 554 a.u. |
| CTAGGGAGGCAACGTGATGTGGTTCATAGCACTTTCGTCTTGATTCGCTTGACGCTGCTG | 1560 a.u. |
| GAATACCATTTGGATCATGTGCCTTTGCCAACTTAGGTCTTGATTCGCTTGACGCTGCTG | 1710 a.u. |
| GAAGGTTAATCACATGGCGTGGCTTGCTCCACGTAGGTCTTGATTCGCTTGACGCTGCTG | 2980 a.u. |
| GAATTACCCGCTCGTGATACCTGACGACCATTATAGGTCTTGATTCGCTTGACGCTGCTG | 1860 a.u. |
| GAACGAAAACGTTCCAACGTGCGGCCGCTGCTTTAGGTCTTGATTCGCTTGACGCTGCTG | 536 a.u. |
| CTAAAGACATGCTTTCTCATGACTGCCTAATAATTCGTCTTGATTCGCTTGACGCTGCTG | 669 a.u. |
| CTACAGGACAGTTTGCACGTTATCAGATAAACTTTCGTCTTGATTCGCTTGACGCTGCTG | 1040 a.u. |
| GAAACCAATGACTCTCTCGTGAAGCTACTATGGTAGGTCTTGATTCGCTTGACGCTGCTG | 518 a.u. |
| CTAACTATTAAACGTGACGGTGCTGCTGAGATCTTCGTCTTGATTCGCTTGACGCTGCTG | 1340 a.u. |
| CTAGCAAGGATTGGTGATGAGATAAGATAATGATTCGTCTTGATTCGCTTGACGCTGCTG | 518 a.u. |
| CTATACTCTAAAAATGTGGTGGTGGCTTAATGCTTCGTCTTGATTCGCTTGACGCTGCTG | 504 a.u. |
| CTACCTTTTCAAGATCATCACCGTCGTCATCACTTCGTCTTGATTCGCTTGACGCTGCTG | 548 a.u. |
| CTAAATTTCGCTAAACACGGGGTTTAAGTTTAATTCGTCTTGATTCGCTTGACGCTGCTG | 768 a.u. |
| GAATCTGCATAATGTCACCTTTTCTTTTTTTTTTAGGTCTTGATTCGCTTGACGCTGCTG | 557 a.u. |
| GAAAGCGAGTTAACTAACGTGTTCGCCGGGCAATAGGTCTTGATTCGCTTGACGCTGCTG | 510 a.u. |
| CTATCAAGAGGATGTGTCACCATGGTAGCAAAGTTCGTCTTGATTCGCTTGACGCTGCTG | 523 a.u. |
| CTACAAATAAAACATCATCACAATGTCTAGATTTTCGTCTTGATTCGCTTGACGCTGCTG | 510 a.u. |
| GAAAGAATTAAGCCGCACGTGCTCGCCGCAGATTAGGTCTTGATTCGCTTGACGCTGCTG | 11400 a.u. |
| GAATTTGGAAAACAACATCAGAGAATTCCCAGATAGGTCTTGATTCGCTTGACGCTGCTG | 506 a.u. |
| CCTAACTACTATAATGACGTCATATAGCTTCGTACAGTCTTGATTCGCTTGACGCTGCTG | 525 a.u. |
| CTAGTAATGTTACCTCATCTGATATACAATAAATTCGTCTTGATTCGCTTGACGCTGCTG | 507 a.u. |

Series 4 — technique: protein-binding microarray; molecule type: double-stranded DNA, one strand shown; matrix: in vitro; concentration: 250 nM; notes: 60-bp whole probe; with: salmon DNA 0.4 mg/ml; baseline: random background probes; direction: higher = stronger binding; shared flanks, not repeated: GCCTAGCAC … GTCTTGATTCGCTTGACGCTGCTG
Target: Interferon regulatory factor 5, full length, phosphomimetic (IRF5, Homo sapiens, UniProt Q13568-2, residues 1-514, K96S/S451D/S453D/S456D/S462D)
| Strand | log fluorescence [z-score] |
| --- | --- |
| GACGGTATCCTACTGATGACGTGCTAG | -0.205 |
| GAGGGTTTCGGGTTTCGGGACGTGCTA | 6.9 |
| TTAGGTATCGGTATCGGTCAGTGCTAG | 8.6 |
| GACGCTTTCGGTTTCGGGACGTGCTAG | 11 |
| GTAGATTTCAGTCTCGATTAGTGCTAG | 2.79 |
| GACGAGATCAGACTGGAGACGTGCTAG | -0.221 |
| TTATGTTTCGGGTTTCGGTTAGTGCTA | 10 |
| CTTTACATGAGTTTAGAGCCGTGCTAG | 0.0127 |
| GTGAGAAATAAGTTTCTTTTGTGCTAG | 1.52 |
| GACGGTCACCTTTTCCTGACGTGCTAG | 0.244 |
| TCCCCTCTAGGTCTTCTGAAGTGCTAG | -0.383 |
| TATTGTGTCAACTTTCTCTGCGTGCTA | 1.1 |
| GACGGTATCGTGACTGGGGACGTGCTA | -0.0068 |
| TCCAATTGTCCTTTCACTTTGTGCTAG | 2.74 |
| TTAGGACTGGTGACTGGGTTAGTGCTA | -0.12 |
| GTCGATTTCAGACTGGAGACGTGCTAG | 0.309 |
| CCCCCTTTTATATTGTAAGCGTGCTAG | 0.0488 |
| TTAGGACTGGGCCTGGGTTAGTGCTAG | -0.354 |
